Experimental data collected from several papers.
Each line is one published result; not all experiments were run side by side. ± marks the error that the study gave.

With `Cc1ccc2nc(C)c(C(=O)NCc3cccs3)n2c1` the half-life was under 0.05 h (mouse liver microsomes).
`CC(C)C[C@H](NC(=O)[C@H](CCCCN)NC(=O)[C@H](CCCCNC(=O)[C@H](CC(C)C)NC(=O)[C@H](CCCCN)NC(=O)[C@H](CCCCNC(=O)[C@H](CC(C)C)NC(=O)[C@H](CCCCN)NC(=O)[C@H](CCCCNC(=O)[C@H](CC(C)C)NC(=O)[C@@H](N)CCCCN)NC(=O)[C@H](CC(C)C)NC(=O)[C@@H](N)CCCCN)NC(=O)[C@H](CC(C)C)NC(=O)[C@H](CCCCN)NC(=O)[C@H](CCCCNC(=O)[C@H](CC(C)C)NC(=O)[C@@H](N)CCCCN)NC(=O)[C@H](CC(C)C)NC(=O)[C@@H](N)CCCCN)NC(=O)[C@H](CC(C)C)NC(=O)[C@H](CCCCN)NC(=O)[C@H](CCCCNC(=O)[C@H](CC(C)C)NC(=O)[C@H](CCCCN)NC(=O)[C@H](CCCCNC(=O)[C@H](CC(C)C)NC(=O)[C@@H](N)CCCCN)NC(=O)[C@H](CC(C)C)NC(=O)[C@@H](N)CCCCN)NC(=O)[C@H](CC(C)C)NC(=O)[C@H](CCCCN)NC(=O)[C@H](CCCCNC(=O)[C@H](CC(C)C)NC(=O)[C@@H](N)CCCCN)NC(=O)[C@H](CC(C)C)NC(=O)[C@@H](N)CCCCN)C(N)=O` has a half-life of about 15 h (RP-UPLC; human serum 25%; 200 µM, 37 °C).
With `O=C(Cc1ccc2ccccc2c1)N[C@H](Cc1ccccc1)C(=O)N[C@H](Cc1ccc(O)cc1)C(=O)N[C@H](Cc1ccccc1)C(=O)N[C@H](Cc1ccc(OP(=O)(O)O)cc1)C(=O)O` the half-life was over 6 h (substrate; HepG2 cell lysate; 500 µM, pH 7.4, 37 °C).
With `Cc1cccc(-c2nc(Nc3ccncn3)c3c(C)csc3n2)n1` the half-life was under 0.05 h (mouse liver microsomes).
With `CC(COC(=O)c1ccccc1)OC(=O)C(N)C(C)C` (mixture of isomers) the half-life was under 1 h (rat intestinal homogenate; 37 °C).
The half-life of `COc1ccc(CCNc2cc(-c3ccccc3)nc3ncnn23)cc1` is reported as 0.413 h (human liver microsomes).
`CSCC[C@H](NC(=O)CNC(=O)CNC(=O)[C@H](CO)NC(=O)[C@H](CC(C)C)NC(=O)[C@@H]1CCCN1C(=O)[C@H](CO)NC(=O)[C@H](CC(N)=O)NC(=O)[C@H](CC(C)C)NC(=O)[C@H](C)NC(=O)[C@@H](NC(=O)[C@H](CC(C)C)NC(=O)[C@H](Cc1c[nH]cn1)NC(=O)[C@H](CC(C)C)NC(=O)[C@@H](NC(=O)[C@@H]1CCCN1C(=O)[C@H](CCC(N)=O)NC(=O)[C@H](Cc1ccccc1)NC(=O)[C@H](CC(=O)O)NC(=O)[C@H](CCCNC(=N)N)NC(=O)[C@H](Cc1c[nH]cn1)NC(=O)[C@H](CO)NC(=O)[C@H](Cc1c[nH]cn1)NC(=O)[C@H](CCSC)NC(=O)[C@H](CC(=O)O)NC(=O)CNC(=O)[C@H](CCCNC(=N)N)NC(=O)[C@H](CC(=O)O)NC(=O)CNC(=O)[C@@H](N)CCCNC(=N)N)C(C)C)C(C)C)C(N)=O` has a half-life of 0.0538 ± 0.00167 h (metabolic stability; cynomolgus monkey liver homogenate; 20 µg/mL, 37 °C).
The half-life of `CNc1nc(SC)nc2ccccc12` is reported as under 0.05 h (mouse liver microsomes).
For `CC[C@H](C)[C@@H]1NC(=O)[C@H](Cc2ccc(O)cc2)NC(=O)[C@@H](N)CSCSC[C@@H](C(=O)N2CCC[C@H]2C(=O)N[C@@H](CC(C)C)C(=O)NCC(N)=O)NC(=O)[C@H](CC(N)=O)NC(=O)[C@H](CCC(N)=O)NC1=O`, the half-life was 816 ± 28.8 h (phosphate buffer; 0.1 mg/mL, pH 7.0, 40 °C).
The half-life of `CC[C@H](C)[C@@H]1NC(=O)[C@H](CC(N)=O)NC(=O)[C@@H]2CCCN2C(=O)[C@@H](NC(=O)[C@H](CC(N)=O)NC(=O)[C@@H](N)CCC(N)=O)COC(=O)[C@H](CCSC)NC(=O)[C@H](Cc2c[nH]c3ccccc23)NC(=O)[C@H](CCC(N)=O)NC(=O)CNC(=O)[C@H](Cc2ccccc2)NC1=O` is reported as under 0.5 h (human plasma diluted with PBS; 0.28 mM, pH 7.2, 37 °C).
`Cc1ccc2nc(C)c(C(=O)NCc3ccc(C(F)(F)F)cc3)n2c1` gave a half-life of 0.483 h (rat liver microsomes).
`N=C(N)NCCC[C@@H](NC(=O)[C@H](Cc1ccc(O)cc1)NC(=O)CC[P+](c1ccccc1)(c1ccccc1)c1ccccc1)C(=O)N[C@@H](Cc1ccccc1)C(=O)N[C@@H](CCCCN)C(N)=O` gave a half-life of 20 h (trypsin cleavage; 1 µM, pH 7.4, room temperature).
The half-life of `CC(C)[C@H](N)C(=O)OCOC(=O)c1ccccc1.O=C(O)C(F)(F)F` is reported as 10.5 h (isotonic buffer; pH 1.2, 37 °C).
`CC(C)C(N)C(=O)NC(C(=O)OCC(=O)C1(O)CCC2C3CCC4=CC(=O)C=CC4(C)C3C(O)CC21C)C(C)C` (stereo not drawn) gave a half-life of 19 ± 2 h (SIRC cell homogenate; pH 7.4, 37 °C).
For `N=C(N)NCCC[C@@H]1NC(=O)[C@H](Cc2ccc(O)cc2)NC(=O)[C@H](CO)N2CC[C@@H](C2=O)N2CC[C@H](NC(=O)[C@@H]3CCCN3C(=O)[C@H](Cc3ccc(O)cc3)NC1=O)C2=O`, the half-life was over 72 h (HPLC; human serum).
`CC(COC(=O)c1ccccc1)OC(=O)C(N)Cc1ccccc1` (mixture of isomers) gave a half-life of over 2 h (rat intestinal lumenal perfusate; 37 °C).
For `O=P([O-])([O-])Oc1ccc(-c2cc(=S)ss2)cc1.[Na+].[Na+]`, half-life read “stable” (0.9% NaCl solution; pH 7.4, 37 °C).
`N#Cc1ccc(NC(=O)c2cccnc2)cc1Cl` gave a half-life of over 2 h (plasma stability; mouse plasma; 5 µM, 37 °C).
The half-life of `Cc1ccc(OCCN(C)C)cc1C(=O)N[C@H](C)c1cc(-c2cnn(C)c2)cc(-c2cnn(C)c2)c1` is reported as over 2.42 h (mouse liver microsomes).
`C=CC1CN2CCC1CC2C(O)c1c(-c2ccc(N=Nc3ccccc3)cc2)cnc2ccc(OC)cc12` (stereo not drawn) gave a half-life of 2.38 h (reductive degradation; solution; cis isomer, together with: 10 mM glutathione).
For `C#Cc1c(F)ccc2cc(O)cc(-c3ncc4c(N5CC6CCC(C5)N6C(=O)OC(C)OC(=O)CCCC)nc(OC[C@@]56CCCN5C[C@H](F)C6)nc4c3F)c12` (stereo partly drawn), the half-life was 0.0638 h (mouse whole blood; 1 µM).
For `CC(C)[C@H](NC(=O)[C@H]1CCC[C@@H]1NC(=O)[C@H](CC(N)=O)NC(=O)[C@H](CCCNC(=N)N)NC(=O)[C@H]1CCC[C@@H]1N)C(=O)N[C@@H](Cc1ccccc1)C(=O)N[C@H]1CCC[C@@H]1C(=O)N[C@@H](Cc1ccccc1)C(=O)N[C@@H](Cc1ccc(O)cc1)C(=O)N[C@H]1CCC[C@@H]1C(=O)N[C@H](C(=O)N[C@@H](CC(=O)O)C(N)=O)[C@@H](C)O`, the half-life was over 24 h (LC-MS; human serum; 10 µM, 37 °C).
`CN[C@@H]1[C@H](O)[C@H](NC)[C@H]2O[C@]3(O)[C@H](O[C@@H]2[C@H]1O)O[C@H](C)C[C@@]3(O)CNCc1ccc(Cl)cc1` has a half-life of 23.1 h (rat liver microsomes).
For `CN(C)C(=O)Oc1ccc(/C=C(\C#N)C(=O)NCCCNC(=O)/C(C#N)=C/c2ccc(OC(=O)N(C)C)c(OC(=O)N(C)C)c2)cc1OC(=O)N(C)C`, the half-life was over 24 h (rat plasma (Wistar, male); 100 µM, pH 7.4, 37 °C, plasma share 5 % raised to 80 %).
`CC(=O)N[C@@H](Cc1ccc(O)cc1)C(=O)N[C@@H](CC(=O)O)C(=O)N[C@H]1CCC[C@@H]1C(=O)N[C@@H](Cc1ccccc1)C(=O)N[C@@H](Cc1ccc(O)cc1)C(=O)N[C@H]1CCC[C@@H]1C(=O)N[C@@H](Cc1ccc(O)cc1)C(=O)N[C@H](C(=O)N[C@H](C(=O)N[C@@H](Cc1ccccc1)C(=O)N[C@@H](Cc1c[nH]cn1)C(=O)N[C@H](C(=O)N[C@@H](C)C(=O)N[C@H](C(N)=O)[C@@H](C)O)C(C)C)[C@@H](C)O)C(C)C` has a half-life of 2.6 h (LC-MS; human serum; 10 µM, 37 °C).
The half-life of `O=C(NC12CC3CC(CC(C3)C1)C2)c1cc2cc(Cl)ccc2[nH]1` is reported as 0.365 h (mouse liver microsomes).
For `Cc1ccc(OCCN(C)C)cc1C(=O)N[C@H](C)c1cc(-c2cnn(C)c2)cc(-c2cncs2)c1`, the half-life was 0.438 h (mouse liver microsomes).
For `[CH3][Ti+2][O]C(=O)c1ccc([S][Au][PH](c2ccccc2)(c2ccccc2)c2ccccc2)cc1.c1cc[cH-]c1.c1cc[cH-]c1`, the half-life was 8 h (NMR; DMSO-d6).
With `Nc1nc2c(ncn2COCCOC(=O)CCC(=O)OC[C@H](N)C(=O)O)c(=O)[nH]1` the half-life was 3.5 ± 0.4 h (substrate; rabbit cornea homogenate; 0.133 mM, pH 7.4, 34 °C).
For `CSCC[C@H](NC(=O)[C@@H]1CSSC[C@H](NC(=O)[C@H](CCCCN)NC(=O)[C@H](Cc2ccc(O)cc2)NC(=O)CNC(=O)[C@@H](N)CC(C(=O)O)C(=O)O)C(=O)N[C@@H](C(C)C)C(=O)N[C@H](Cc2c[nH]c3ccccc23)C(=O)N[C@@H](CCCCN)C(=O)N[C@@H]([C@@H](C)O)C(=O)N1)C(=O)N1C[C@H](O)C[C@H]1C(=O)N[C@@H](C)C(=O)O`, the half-life was over 158 h (human plasma; 3 µM, 37 °C).

Excerpt of the above:
`Cc1ccc2nc(C)c(C(=O)NCc3ccc(C(F)(F)F)cc3)n2c1` gave a half-life of 0.483 h (rat liver microsomes).
`CC(C)C[C@H](NC(=O)[C@H](CCCCN)NC(=O)[C@H](CCCCNC(=O)[C@H](CC(C)C)NC(=O)[C@H](CCCCN)NC(=O)[C@H](CCCCNC(=O)[C@H](CC(C)C)NC(=O)[C@H](CCCCN)NC(=O)[C@H](CCCCNC(=O)[C@H](CC(C)C)NC(=O)[C@@H](N)CCCCN)NC(=O)[C@H](CC(C)C)NC(=O)[C@@H](N)CCCCN)NC(=O)[C@H](CC(C)C)NC(=O)[C@H](CCCCN)NC(=O)[C@H](CCCCNC(=O)[C@H](CC(C)C)NC(=O)[C@@H](N)CCCCN)NC(=O)[C@H](CC(C)C)NC(=O)[C@@H](N)CCCCN)NC(=O)[C@H](CC(C)C)NC(=O)[C@H](CCCCN)NC(=O)[C@H](CCCCNC(=O)[C@H](CC(C)C)NC(=O)[C@H](CCCCN)NC(=O)[C@H](CCCCNC(=O)[C@H](CC(C)C)NC(=O)[C@@H](N)CCCCN)NC(=O)[C@H](CC(C)C)NC(=O)[C@@H](N)CCCCN)NC(=O)[C@H](CC(C)C)NC(=O)[C@H](CCCCN)NC(=O)[C@H](CCCCNC(=O)[C@H](CC(C)C)NC(=O)[C@@H](N)CCCCN)NC(=O)[C@H](CC(C)C)NC(=O)[C@@H](N)CCCCN)C(N)=O` has a half-life of about 15 h (RP-UPLC; human serum 25%; 200 µM, 37 °C).
For `CN(C)C(=O)Oc1ccc(/C=C(\C#N)C(=O)NCCCNC(=O)/C(C#N)=C/c2ccc(OC(=O)N(C)C)c(OC(=O)N(C)C)c2)cc1OC(=O)N(C)C`, the half-life was over 24 h (rat plasma (Wistar, male); 100 µM, pH 7.4, 37 °C, plasma share 5 % raised to 80 %).
`CC(=O)N[C@@H](Cc1ccc(O)cc1)C(=O)N[C@@H](CC(=O)O)C(=O)N[C@H]1CCC[C@@H]1C(=O)N[C@@H](Cc1ccccc1)C(=O)N[C@@H](Cc1ccc(O)cc1)C(=O)N[C@H]1CCC[C@@H]1C(=O)N[C@@H](Cc1ccc(O)cc1)C(=O)N[C@H](C(=O)N[C@H](C(=O)N[C@@H](Cc1ccccc1)C(=O)N[C@@H](Cc1c[nH]cn1)C(=O)N[C@H](C(=O)N[C@@H](C)C(=O)N[C@H](C(N)=O)[C@@H](C)O)C(C)C)[C@@H](C)O)C(C)C` has a half-life of 2.6 h (LC-MS; human serum; 10 µM, 37 °C).
